# Results pooled from the literature.
# Numbered parts are unrelated; each lists some results of a single study. Positions count from the first letter of the parent shown.

# Series 1
# Target: CCNB3, cyclin fold, Cln2 fusion (human)
# Method: yeast growth competition, sequencing
# Medium: yeast
# Setting: strong parent motif
# Relative to: not given
# Direction: higher = stronger binding
# Starting sequence: viral docking peptide; KGVKRKLFAEDSS; partner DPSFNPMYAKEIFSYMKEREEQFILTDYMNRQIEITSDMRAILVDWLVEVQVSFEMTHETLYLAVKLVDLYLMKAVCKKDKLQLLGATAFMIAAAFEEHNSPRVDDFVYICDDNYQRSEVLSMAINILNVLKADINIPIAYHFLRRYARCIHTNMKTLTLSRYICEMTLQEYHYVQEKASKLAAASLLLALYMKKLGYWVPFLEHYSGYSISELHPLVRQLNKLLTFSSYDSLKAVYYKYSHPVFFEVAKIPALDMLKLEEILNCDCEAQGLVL
Variant,normalised enrichment score
D11F,1.94
S12R,2.42
D11W,1.47
A9S,2.86
E10W,1.03
D11Y,2.2
F8L,0.0276
G2E,2.52
K6V,2.59
D11T,2.24
K6S,2.01
R5I,0.129
F8C,0.115
L7K,0.221
K4N,1.27
S12V,3.32
D11E,3.12

# Series 2
# Target: vanadate, free oxyanion
# Method: microfluidic competitive inhibition
# Medium: in vitro, cell-free expressed
# Tested at: not given
# Setting: derived from inhibition constants, unchanged parent 676 nM
# Direction: lower = stronger binding
# Starting sequence: PafA, mature enzyme, eGFP fusion (Elizabethkingia meningoseptica, UniProt Q9KJX5); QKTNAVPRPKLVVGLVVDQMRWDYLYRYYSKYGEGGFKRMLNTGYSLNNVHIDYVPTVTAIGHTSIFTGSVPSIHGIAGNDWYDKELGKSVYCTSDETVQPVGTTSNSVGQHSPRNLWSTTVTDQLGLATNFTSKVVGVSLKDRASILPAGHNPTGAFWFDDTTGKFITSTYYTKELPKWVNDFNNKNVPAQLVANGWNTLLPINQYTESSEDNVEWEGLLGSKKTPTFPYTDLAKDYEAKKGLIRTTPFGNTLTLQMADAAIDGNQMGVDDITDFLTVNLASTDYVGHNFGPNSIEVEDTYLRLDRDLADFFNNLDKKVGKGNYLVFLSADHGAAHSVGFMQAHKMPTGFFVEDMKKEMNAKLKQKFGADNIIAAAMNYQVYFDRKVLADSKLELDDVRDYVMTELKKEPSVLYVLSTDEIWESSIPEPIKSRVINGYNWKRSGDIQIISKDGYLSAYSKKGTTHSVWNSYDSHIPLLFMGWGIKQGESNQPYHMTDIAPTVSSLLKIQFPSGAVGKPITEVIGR
Variant,oxyanion analog dissociation constant
K365V,881 nM
G251A,663 nM
Y325G,2.59 µM

# Series 3
# Target: Interferon regulatory factor 7, full length, phosphomimetic (IRF7, Homo sapiens, UniProt Q92985, residues 1-503, S471D/S472D/S475D/S476D/S477D/S483D/S484D/S487D)
# Method: protein-binding microarray
# Form: double-stranded DNA, one strand shown
# Medium: in vitro
# Tested at: 2200 nM top
# Setting: 60-bp whole probe
# With: salmon DNA 0.4 mg/ml
# Relative to: random background probes
# Direction: higher = stronger binding
# Constant ends, left off below: GCCTAGCAC … GTCTTGATTCGCTTGACGCTGCTG
# Construct (chain): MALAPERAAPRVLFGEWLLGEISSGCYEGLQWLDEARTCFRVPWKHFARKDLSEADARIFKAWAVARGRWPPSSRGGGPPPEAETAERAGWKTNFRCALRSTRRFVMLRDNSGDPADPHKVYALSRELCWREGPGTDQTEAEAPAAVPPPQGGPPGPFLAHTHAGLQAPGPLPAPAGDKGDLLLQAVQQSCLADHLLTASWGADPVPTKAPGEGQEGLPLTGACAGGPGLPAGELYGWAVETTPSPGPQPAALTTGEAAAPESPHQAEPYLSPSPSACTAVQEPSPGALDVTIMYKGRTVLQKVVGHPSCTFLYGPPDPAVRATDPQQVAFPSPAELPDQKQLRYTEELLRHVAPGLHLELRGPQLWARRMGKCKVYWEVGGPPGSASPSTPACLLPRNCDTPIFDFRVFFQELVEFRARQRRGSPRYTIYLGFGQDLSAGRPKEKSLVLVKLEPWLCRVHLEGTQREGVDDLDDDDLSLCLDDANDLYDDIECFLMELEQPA
Oligonucleotide,fitted relative affinity [z-score]
CACGAACTGAGTCTCGAGACGTGCTAG,0.203
TTAGGACTGGAGTTTCGGTTAGTGCTA,3.88
GACGGACTGCTGCTCCTGACGTGCTAG,0.285
TGCTTTCTCTTTCACTACTCGTGCTAG,8.7
TTAGGTTTCCTTCCCCTTTAGTGCTAG,2.6
GACGATCGCAGACTGGAGACGTGCTAG,-0.406
TGCTTTCTCTTTCATTGCTGCGTGCTA,7.69
GAGCAGAGGCTGATGTATGTGTGCTAG,-0.54

# Series 4
# Target: Sox-I, HMG box (Salpingoeca helianthica)
# Method: Spec-seq
# Form: double-stranded DNA, one strand shown
# Medium: in vitro
# Tested at: not given
# Setting: whole probe, mean of replicates
# Relative to: not given
# Direction: lower = stronger binding
# Constant ends, left off below: GAGTCGTCTCGTCAGCAC … CCGTAGAGCACTCAGGTC
# Construct (chain): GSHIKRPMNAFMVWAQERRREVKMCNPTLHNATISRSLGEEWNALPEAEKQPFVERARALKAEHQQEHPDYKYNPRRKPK
Oligonucleotide,relative binding energy
GTATGTT,0.111 ln ratio
CATTATA,-1.32 ln ratio
CATCCAA,0.545 ln ratio
CATCAGC,1.08 ln ratio
CATTAGA,0.58 ln ratio
CATTTTG,0.875 ln ratio
CATATAT,0.389 ln ratio
TCATGTT,-0.0148 ln ratio

# Further values, each from its own experiment
Substance,target,test,system,conditions,how to read,quantity,result
"PhoQ, residues 284 288 289 292 302 303 SSCCRF","PhoP, residues 12 14 15 18 19 LHSVQ (Escherichia coli, UniProt P23836)","Sort-seq, measured: YFP reporter",E. coli,"PhoQ-PhoP variant library, with: 10 µM Mg2+","relative to: high Mg2+ state, higher = stronger signaling",fold induction,11.1
